Published values pooled from the literature.
A part holds a random share of what one study measured. Substitutions count along the parent as printed.

Study 1 — technique: RNA Bind-n-Seq; form: RNA; medium: in vitro; concentration: 365 nM; reference: no-protein control; reading: higher = stronger binding
Target: RNA binding protein fox-1 homolog 2, RRM domain, GST-SBP tag (RBFOX2, Homo sapiens, UniProt O43251-10, residues 100-194)
Notes: natural RNA segment, single round, ends assumed
Shared flanks, not repeated: GGGAGUUCUACAGUCCGACGAUC … UGGAAUUCUCGGGUGCCAA
Target sequence (chain): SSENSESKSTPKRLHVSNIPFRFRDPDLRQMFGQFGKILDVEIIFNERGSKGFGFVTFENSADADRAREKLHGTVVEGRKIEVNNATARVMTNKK
| Oligonucleotide | RBNS enrichment (R) |
| --- | --- |
| AAUAUUGAAAAGAUAAGACAAAUUAUAAAUAAGUUCUAAAACAUAAAUUUAAUUCAUCUCUGCAUAGUGAUUUUUGAAUUUGAUUCAAAGGGAAAUUAUUGCAGAAGAAU | 1.2 |
| UGAAGUGGGGCCACAGAUUUAGAAUCCAUUUAAGUUUCCCUGUUGUGUGUCUGUGUUGACCCUGGGACAAGUGUGAGACAGGAAGAGUGUGGGGAGUCUGGGCUCGGUAG | 1.56 |
| UGUGAUGGCUCUUUAAGAAUUGGGUUUGACCAAAGUUCUCUUUGUUUUCAGGGAAAACUAUAUAAAAGCUUUCUGAGCCACAGCCUUUUAAAAGGGGAAAGGCUAAUAGU | 0.462 |
| AAAACCUUCCUGAGGAUCUGGAUUCAGGACCCUCCAUGACUGGCCUAUUUACUGUUUACAGCUGGCCAGUGCAGAGCUGCUGCUCUUUUACCUUUUUAGGCCCCUGUAAC | 0.495 |
| UCAAAGUUGGAUGACCUCAUUACUAAUAUUUGUUGUAAAAGUGAAACUUGUUUGCCAACCAAUAAACAACUGAUUGAGAUUUAGAAGAUAUUGUAUUGAUGUAUGUACUA | 0.399 |
| GAUUUCAGUACAUGGAUUUAAAAGGCAACAAUCCAUCACUGGUUUGUGUGUUUUUGGUUAAGUUUCUGGAAGAAUACAAUGCUUUUAUAUUGGAAGUAUAAGUUUUGAGU | 0.513 |
| UGUUCCUCCAUACUACUGAAGCCCACCCACAUCCAAGAUCCCUUAUGUAAAAACUGUCUGCAAGGACCGUCUGGCUUCAUUUCCCUGAGCACUCCCUACAUGGUAGGUUG | 0.434 |
| CAGGAGAAUUACCCCUAUACCUGAGCCUCAACCUUCUGGGGGAAAGGGAACUAGAUAACAUACUUCUUACUUGUCUGUACAGUACCUUGUUGCAGAUGGGUGAUAUAUAA | 0.398 |
| UUUGUUCUGGCAGUGAGUCAAGUGUCCAGCAUUUUUUCAUAAGUGUUUUUUAAAAUUGUUCUCCAGCAUUUUAUGGCUCCUCCCUCCCAUGUCCUCAGACCCAGCAAAAG | 0.67 |
| UGUUAAAUUAGAAUGAAUUUAUCUUUACCAAAAACCAUGUUGCGUUCAAAGAGGUGAACAUUAAAAUAUAGAGACAGGACAGAAUGUGUUCUUUUCUCCUUUACCAGUCC | 1.65 |
| ACUUGCCAGCCACCACAGGGCUCAUGAGGGGCUUGAACCCAUGUCGUGUGUCUCUACCACAGCUGACUCUCAGCUGGCUAAUGGAGAAAAUGUGAGGAAUUACCUGUCAA | 0.334 |
| UGGAAUGACCAGAGAGCGAGCUGCCUUACCUCCCUACAUUCCAAGUCAGGACCAGCACAGGACUAACAACUCUGGUCUUAACAGCCUCCUCCUUCCCAUGUCCCUUUCAC | 0.271 |

Study 2 — technique: RNA Bind-n-Seq; form: RNA; medium: in vitro; concentration: 200 nM; notes: whole 134-nt RNA, ends assumed; together with: 150 mM LiCl; reference: input library; reading: higher = stronger binding; each molecule: 7-deaza-guanosine replaces G
Target: Fragile X messenger ribonucleoprotein 1, C-terminal low-complexity region (Fmr1, Mus musculus, UniProt P35922)
Shared flanks, not repeated: GGGAGUUCUACAGUCCGACGAUC … UGGAAUUCUCGGGUGUCAAGG
| Oligonucleotide | log2 enrichment |
| --- | --- |
| CCUGUGCUACACAUCGUAUGUACCGAAUCGGGUUUUUUUGGUUUUUUUGGGGUUUUUUUGGAAAGUAUUAUGUUACGCCGUUCGGAUCUG | 0.178 |
| CCUCAAGUCCUGUGCUACACAUCGUAUGUACCGAAUCGGUGGGGUGGGGUGGGAAAGUAUUAUGUUACGCCGUUCGGAUCUGCACUUCCA | -0.859 |
| UGGCCCUGGUGGCAUGCGGGGAGGAAGAAGUGGCCUCAUGGAUCGUGGUGGUCCCGGUGGAAUGUUCAGAGGUGGCCGUGGUGGAGACAG | -0.233 |
| UAACUUUAGAGGAGGAUCUGAUGGAUAUGGCAGUGUACGUGGAUUUGGGGAUGGCUAUAAUGGGUAUGGAGGAGGACCUGGAGGUGGCAA | 0.547 |
| CUCAAGUCCUGUGCUACACAUCGUAUGUACCGAAUCGGGGUGGGUGGGUGGGGAAAGUAUUAUGUUACGCCGUUCGGAUCUGCACUUCCA | -1.25 |
| UCAAGUCCUGUGCUACACAUCGUAUGUACCGAAUCGGGCCGGGGCCGGGGCCGGGAAAGUAUUAUGUUACGCCGUUCGGAUCUGCACUUC | -0.063 |
| CUGUGCUACACAUCGUAUGUACCGAAUCAAAUUUUUUUAAACCCCCCCAAACCCCCCCAAAAAAGUAUUAUGUUACGCCGUUCGGAUCUG | 1.89 |
| UGGGAGGUGGAUUUUGUUUAUUUUUUUAGCUCAUUUCCAGGGGUGGGAAUUUUUUUUUAAUAUGUGUCAUUAAUAAAGUUGUUUUUGAAA | -0.234 |
| UGGCCCUGGUGGCAUGCGGGGAGGAAGAGGUGGCCUCAUGGAUCGUGGUGGUCCCGGUGGAAUGUUCAGGGGUGGCCGUGGUGGAGACAG | -0.563 |
| UGUGCUACACAUCGUAUGUACCGAAUCGGGGUUUUUUUGGGGAAAAAGGGGAAAAAAAGGGGAAAGUAUUAUGUUACGCCGUUCGGAUCU | -1.07 |
| CCUCAAGUCCUGUGCUACACAUCGUAUGUACCGAAUCGGAGGGGAGGGAGGGGAAAGUAUUAUGUUACGCCGUUCGGAUCUGCACUUCCA | -1.07 |

Study 3 — technique: RNA Bind-n-Seq; form: RNA; medium: in vitro; concentration: not given; reference: input RNA pool; reading: higher = stronger binding
Target: RING finger protein unkempt homolog, zinc fingers 1-6, GST-SBP tag (UNK, Homo sapiens, UniProt Q9C0B0, residues 30-357)
Notes: RNA with constant flanks, human-mouse chimeric sites, ends assumed
Shared flanks, not repeated: GGGAGUUCUACAGUCCGACGAUC … CAACAGAGGAUUGAGCAUCA
Target sequence (chain): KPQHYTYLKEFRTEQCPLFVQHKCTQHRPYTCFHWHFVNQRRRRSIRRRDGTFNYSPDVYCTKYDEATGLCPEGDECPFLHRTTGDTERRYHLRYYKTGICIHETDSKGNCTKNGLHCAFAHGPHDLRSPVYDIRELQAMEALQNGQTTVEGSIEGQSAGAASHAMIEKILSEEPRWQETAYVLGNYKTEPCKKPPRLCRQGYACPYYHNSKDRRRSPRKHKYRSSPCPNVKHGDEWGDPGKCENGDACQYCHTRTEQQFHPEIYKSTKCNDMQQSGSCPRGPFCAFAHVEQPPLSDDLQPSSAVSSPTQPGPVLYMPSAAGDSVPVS
| Oligonucleotide | bound/input enrichment |
| --- | --- |
| UUGUGCAAUGAUGCUUGGAGAUGGUUUUGCAAAAGCAGAAAUCGCUGCAAGGUAAUCACAAUAGAUAAAAGUGGUAUUUUAAACCUUUGAAAUAAAUGGAUGUAACUGUACCUUGGUACA | 0.873 ratio |
| GGAUCUUUGGGACUGUUUUACUUAAUUGGUCAUUGAUAGCUUAACAAACAUGGAGAUAAGAUUAGAAAUCUUGACAUCAACAGGUAUUAAGCAGAAAAAACCCUGGCCACGUGUCUCCUG | 0.226 ratio |
| UGACAAGGGCACUGCAGAGCCAUGCCUUUCCUUGACAUACAGAAAAAGCUGGGCAUCAGCCUGGACCGAUGGUUGACAAUCCAGAGUGCAGAACAGCCCUAUAAGAACGCCGCUCGGUGC | 0.0829 ratio |
| CGCUGGCCCAAGCUGAUGGACUCUGAUGGCCUCCAUCAAGGUAUUAUGUGUGCCUUCUCUUAGUCCCUGUUUUCGGGAUGUUAUGAAUCUCAGUACUGUGGUUUGAAAGCAGUUAUGUUG | 0.173 ratio |
| GUGCCCUUCUCGCUGCUGCGGAGCCCGAGCUGGGAACACCCCUUCCGCUGGUACCCUGCACACAGCCGCCUCUUCGACCAGGCCUUCGGGGUGCCCCGGUUGCCCGAUGAGUGGUCGCAG | 0.0728 ratio |
| AGAGAUAAGACAUCCAGGAACAUGCGAGGCUCCCGGAUGAAUGGGUUUCCAAGUCCCACUCACAGCGCCCACUGUAGCUUCUACCGAACCAGAACCUUGCAGGCACUAAGUAAUGAGAAG | 0.127 ratio |
| GUAAUGGACGUCAACACUGCUCUACAAGAGGUUCUGAAGACCGCCCUCAUCCACGAUGGCCUAGCACGUGGAAUUCGCGAAGCUGCCAAAGCCUUAGACAAGCGCCAAGCCCAUCUGUGU | 0.647 ratio |
| UUUGUUUUUAUGCUAAGCACACGUGCUGGUGGUCUGGGCAUCAAUCUUGCAACUGCUGAUGUAGUCAUUUUAUAUGACUCAGAUUGGAAUCCGCAAGUAGAUCUUCAGGCUAUGGACCGU | 0.145 ratio |
| ACUCUUGACUCUUUCCAUCCUCUUCCUUUUCCUCUUGAUAUUCAAGGCCAUGAAUCCCAAAAUAACAGUCUUAGUGGCUAGCACCCAAACAGAGGUGGAAUAAAUCCACCCCAGUGUCUC | 0.56 ratio |
| CAGCGCCGAGGCCGCGGUUUCCCCCUGGGUGUGCUGAGCAGCAGCCAUGGGCAUCAAAUUUUUAGAAGUUAUUAAACCAUUCUGUGCAGUUCUACCAGAAAUUCAGAAACCGGAAAGGAA | 5.73 ratio |
| GUGACUGGUGUUAAGAUUUCCCCUCAGCAAAGAAGUGUAGCAGUGACCAUAAUUCCAUCUGUGGUGAGUGCCAGUCAGAUUGUGGAGCUGGUCCCAGACCUCAGUUUAGAUACUGGGACU | 0.414 ratio |

Study 4 — technique: DHFR PCA, deep sequencing; medium: yeast; together with: (+)-ABA 0.0091 µM; reference: wild-type fitted maximum; reading: higher = stronger binding
Target: ABI1, truncated, D143A, DHFR fusion (Arabidopsis thaliana)
Notes: methotrexate growth selection, single substitutions
Starting sequence: PYL1, truncated, DHFR fusion (Arabidopsis thaliana); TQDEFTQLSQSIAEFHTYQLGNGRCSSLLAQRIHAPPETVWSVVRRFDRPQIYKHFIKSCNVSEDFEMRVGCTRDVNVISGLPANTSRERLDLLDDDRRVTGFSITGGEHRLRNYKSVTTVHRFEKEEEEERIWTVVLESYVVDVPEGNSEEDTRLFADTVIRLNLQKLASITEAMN
| Variant | relative binding score [%] |
| --- | --- |
| V121E | -1.7 |
| S104G | -0.697 |
| G81Q | 9.91 |
| G148W | 4.7 |
| L166Y | -1.18 |
| D65S | 8.5 |
| T101M | 76.8 |
| E127S | 32 |
| D96R | -4.09 |
| G108K | -6.88 |
| H16P | 1.25 |
| T17I | 2.04 |
| R49L | 0.449 |
| L94A | -2.74 |
| L8F | 38.8 |
| P36W | 3.53 |
| L94K | -6.75 |
| D48E | 1.27 |
| E129M | 4.52 |
| Q19V | 18.2 |
| P146L | 28.8 |
| T173R | -1.19 |
| L166A | -1.03 |
| R123N | 6.48 |
| K54Y | -7.59 |

For quick reference, copied from above (study 2):
| Oligonucleotide | log2 enrichment |
| --- | --- |
| CCUGUGCUACACAUCGUAUGUACCGAAUCGGGUUUUUUUGGUUUUUUUGGGGUUUUUUUGGAAAGUAUUAUGUUACGCCGUUCGGAUCUG | 0.178 |
| CCUCAAGUCCUGUGCUACACAUCGUAUGUACCGAAUCGGUGGGGUGGGGUGGGAAAGUAUUAUGUUACGCCGUUCGGAUCUGCACUUCCA | -0.859 |
| UGGCCCUGGUGGCAUGCGGGGAGGAAGAAGUGGCCUCAUGGAUCGUGGUGGUCCCGGUGGAAUGUUCAGAGGUGGCCGUGGUGGAGACAG | -0.233 |
| UAACUUUAGAGGAGGAUCUGAUGGAUAUGGCAGUGUACGUGGAUUUGGGGAUGGCUAUAAUGGGUAUGGAGGAGGACCUGGAGGUGGCAA | 0.547 |
| CUCAAGUCCUGUGCUACACAUCGUAUGUACCGAAUCGGGGUGGGUGGGUGGGGAAAGUAUUAUGUUACGCCGUUCGGAUCUGCACUUCCA | -1.25 |
| UCAAGUCCUGUGCUACACAUCGUAUGUACCGAAUCGGGCCGGGGCCGGGGCCGGGAAAGUAUUAUGUUACGCCGUUCGGAUCUGCACUUC | -0.063 |
| CUGUGCUACACAUCGUAUGUACCGAAUCAAAUUUUUUUAAACCCCCCCAAACCCCCCCAAAAAAGUAUUAUGUUACGCCGUUCGGAUCUG | 1.89 |
| UGGGAGGUGGAUUUUGUUUAUUUUUUUAGCUCAUUUCCAGGGGUGGGAAUUUUUUUUUAAUAUGUGUCAUUAAUAAAGUUGUUUUUGAAA | -0.234 |
